Measurements from different studies.
Several values in a cell are separate wells, animals, samples, runs or records. ± marks the error that the study gave.
Aryl hydrocarbon receptor: Aryl hydrocarbon receptor (Danio rerio, UniProt Q9YGV3)
RPS6KA2: Ribosomal protein S6 kinase alpha-2 (RPS6KA2, Homo sapiens, UniProt Q15349)
Sequence of UniProt Q15349 (whole entry, looked up): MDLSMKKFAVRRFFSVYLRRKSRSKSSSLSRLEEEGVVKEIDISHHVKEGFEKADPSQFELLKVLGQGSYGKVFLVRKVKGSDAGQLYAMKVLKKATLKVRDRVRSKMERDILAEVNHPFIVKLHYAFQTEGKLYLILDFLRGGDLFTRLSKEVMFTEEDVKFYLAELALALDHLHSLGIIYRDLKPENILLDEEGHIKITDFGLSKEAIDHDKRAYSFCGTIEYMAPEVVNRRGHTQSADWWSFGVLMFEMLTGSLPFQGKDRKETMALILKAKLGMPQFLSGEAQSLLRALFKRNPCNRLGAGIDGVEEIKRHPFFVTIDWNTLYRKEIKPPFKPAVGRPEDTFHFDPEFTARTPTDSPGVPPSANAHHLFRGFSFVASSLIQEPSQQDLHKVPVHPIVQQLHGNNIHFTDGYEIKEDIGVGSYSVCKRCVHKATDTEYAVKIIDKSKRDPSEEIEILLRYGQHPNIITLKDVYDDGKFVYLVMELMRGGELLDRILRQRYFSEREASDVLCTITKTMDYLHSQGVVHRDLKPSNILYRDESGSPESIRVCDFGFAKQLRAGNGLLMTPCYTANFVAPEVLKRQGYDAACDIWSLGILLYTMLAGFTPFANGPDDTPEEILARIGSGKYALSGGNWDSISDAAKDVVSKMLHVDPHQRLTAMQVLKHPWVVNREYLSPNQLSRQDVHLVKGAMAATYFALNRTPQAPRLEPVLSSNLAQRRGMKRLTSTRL
SET: Protein SET (SET, Homo sapiens, UniProt Q01105)
Sequence of UniProt Q01105 (whole entry, looked up): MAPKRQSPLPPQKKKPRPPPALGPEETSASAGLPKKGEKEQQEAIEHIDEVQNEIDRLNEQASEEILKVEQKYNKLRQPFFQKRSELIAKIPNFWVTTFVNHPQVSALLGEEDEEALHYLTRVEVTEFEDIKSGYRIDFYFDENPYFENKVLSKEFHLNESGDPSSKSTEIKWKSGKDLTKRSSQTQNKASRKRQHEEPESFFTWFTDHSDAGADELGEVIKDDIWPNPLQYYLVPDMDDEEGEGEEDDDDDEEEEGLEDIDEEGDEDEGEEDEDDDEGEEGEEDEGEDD
ABL1 H396P: Tyrosine-protein kinase ABL1 (ABL1, Homo sapiens, UniProt P00519, H396P)
Sequence of UniProt P00519 (whole entry, unmodified, looked up): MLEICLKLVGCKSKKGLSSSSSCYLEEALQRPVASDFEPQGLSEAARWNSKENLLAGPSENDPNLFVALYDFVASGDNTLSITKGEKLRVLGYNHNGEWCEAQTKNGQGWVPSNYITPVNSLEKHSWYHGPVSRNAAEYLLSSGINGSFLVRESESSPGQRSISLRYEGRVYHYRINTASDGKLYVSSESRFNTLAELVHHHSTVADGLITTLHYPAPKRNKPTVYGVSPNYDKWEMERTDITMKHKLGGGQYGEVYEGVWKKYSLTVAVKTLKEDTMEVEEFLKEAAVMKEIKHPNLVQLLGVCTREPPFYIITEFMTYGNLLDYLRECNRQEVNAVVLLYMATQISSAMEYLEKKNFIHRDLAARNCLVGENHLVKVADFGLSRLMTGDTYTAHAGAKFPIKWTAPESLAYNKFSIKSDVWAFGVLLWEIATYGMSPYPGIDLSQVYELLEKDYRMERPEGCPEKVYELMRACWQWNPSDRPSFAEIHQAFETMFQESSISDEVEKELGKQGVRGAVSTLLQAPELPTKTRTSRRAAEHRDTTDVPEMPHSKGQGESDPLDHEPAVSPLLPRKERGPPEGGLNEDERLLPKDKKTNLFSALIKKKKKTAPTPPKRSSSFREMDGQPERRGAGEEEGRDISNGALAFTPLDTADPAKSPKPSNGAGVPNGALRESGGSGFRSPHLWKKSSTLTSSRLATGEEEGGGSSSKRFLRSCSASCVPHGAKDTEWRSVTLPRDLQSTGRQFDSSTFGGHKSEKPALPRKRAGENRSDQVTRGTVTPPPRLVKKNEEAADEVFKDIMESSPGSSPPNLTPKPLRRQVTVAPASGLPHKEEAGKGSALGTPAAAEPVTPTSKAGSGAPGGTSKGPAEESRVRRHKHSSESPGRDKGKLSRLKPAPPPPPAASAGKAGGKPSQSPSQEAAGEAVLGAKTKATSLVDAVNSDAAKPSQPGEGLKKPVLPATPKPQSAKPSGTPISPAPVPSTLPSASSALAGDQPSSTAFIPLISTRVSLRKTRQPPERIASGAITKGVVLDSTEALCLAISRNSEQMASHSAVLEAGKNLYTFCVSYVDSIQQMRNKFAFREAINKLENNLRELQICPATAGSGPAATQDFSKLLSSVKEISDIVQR
NF-kappa-B inhibitor alpha: NF-kappa-B inhibitor alpha (Homo sapiens, UniProt P25963)
Sequence of UniProt P25963 (whole entry, looked up): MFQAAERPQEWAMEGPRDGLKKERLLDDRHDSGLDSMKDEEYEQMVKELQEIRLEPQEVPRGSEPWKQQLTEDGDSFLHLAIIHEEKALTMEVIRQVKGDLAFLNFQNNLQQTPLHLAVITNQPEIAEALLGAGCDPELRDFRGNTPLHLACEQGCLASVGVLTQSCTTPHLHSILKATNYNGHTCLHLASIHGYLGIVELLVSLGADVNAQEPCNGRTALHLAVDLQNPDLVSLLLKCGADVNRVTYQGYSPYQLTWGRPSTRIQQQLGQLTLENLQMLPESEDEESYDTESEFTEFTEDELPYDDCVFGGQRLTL
T1: dsDNA, duplex; GAGGCCTC
T2: DNA aptamer C13T; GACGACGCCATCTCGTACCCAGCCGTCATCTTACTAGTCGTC
Sequence of UniProt O76090 (whole entry, unmodified, looked up): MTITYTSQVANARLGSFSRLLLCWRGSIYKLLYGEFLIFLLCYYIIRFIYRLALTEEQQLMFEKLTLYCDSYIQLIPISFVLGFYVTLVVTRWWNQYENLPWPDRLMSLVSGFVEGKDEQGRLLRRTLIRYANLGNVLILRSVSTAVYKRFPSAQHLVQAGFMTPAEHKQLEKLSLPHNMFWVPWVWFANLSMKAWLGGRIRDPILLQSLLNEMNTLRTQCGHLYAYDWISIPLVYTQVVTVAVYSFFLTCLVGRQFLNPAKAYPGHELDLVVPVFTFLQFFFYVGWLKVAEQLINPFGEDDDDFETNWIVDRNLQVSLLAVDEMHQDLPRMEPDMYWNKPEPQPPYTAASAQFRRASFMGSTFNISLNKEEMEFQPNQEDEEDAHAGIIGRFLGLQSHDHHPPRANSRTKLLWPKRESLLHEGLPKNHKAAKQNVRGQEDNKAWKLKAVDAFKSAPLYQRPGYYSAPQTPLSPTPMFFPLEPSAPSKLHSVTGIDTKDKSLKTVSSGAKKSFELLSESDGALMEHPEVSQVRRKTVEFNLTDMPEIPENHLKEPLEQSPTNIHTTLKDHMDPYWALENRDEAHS
Sequence of UniProt Q16774 (whole entry, looked up): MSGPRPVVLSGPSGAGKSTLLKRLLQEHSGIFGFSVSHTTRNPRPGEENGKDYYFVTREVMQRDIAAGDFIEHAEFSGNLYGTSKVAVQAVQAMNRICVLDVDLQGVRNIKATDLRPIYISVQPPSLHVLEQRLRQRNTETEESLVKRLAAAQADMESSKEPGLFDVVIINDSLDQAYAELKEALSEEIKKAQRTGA
Sequence of UniProt P18669 (whole entry, looked up): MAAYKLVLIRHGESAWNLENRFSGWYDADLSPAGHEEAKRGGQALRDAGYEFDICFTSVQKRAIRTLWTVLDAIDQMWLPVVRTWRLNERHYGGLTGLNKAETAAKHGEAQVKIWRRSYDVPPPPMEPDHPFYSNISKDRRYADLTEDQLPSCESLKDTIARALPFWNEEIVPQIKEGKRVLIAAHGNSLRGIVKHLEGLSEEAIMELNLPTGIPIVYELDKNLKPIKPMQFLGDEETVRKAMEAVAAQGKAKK
Sequence of UniProt P51575 (whole entry, unmodified, looked up): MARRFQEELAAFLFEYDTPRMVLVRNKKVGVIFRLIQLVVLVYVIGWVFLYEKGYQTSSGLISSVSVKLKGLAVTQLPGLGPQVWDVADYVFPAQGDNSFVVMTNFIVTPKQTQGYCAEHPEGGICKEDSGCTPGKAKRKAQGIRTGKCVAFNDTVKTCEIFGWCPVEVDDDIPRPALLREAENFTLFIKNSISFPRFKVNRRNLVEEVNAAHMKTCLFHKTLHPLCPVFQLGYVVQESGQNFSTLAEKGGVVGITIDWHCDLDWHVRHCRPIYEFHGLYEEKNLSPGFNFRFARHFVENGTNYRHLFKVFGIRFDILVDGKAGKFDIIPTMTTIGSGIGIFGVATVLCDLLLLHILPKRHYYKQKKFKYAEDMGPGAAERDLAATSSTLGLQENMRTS
Sequence of UniProt P18089 (whole entry, looked up): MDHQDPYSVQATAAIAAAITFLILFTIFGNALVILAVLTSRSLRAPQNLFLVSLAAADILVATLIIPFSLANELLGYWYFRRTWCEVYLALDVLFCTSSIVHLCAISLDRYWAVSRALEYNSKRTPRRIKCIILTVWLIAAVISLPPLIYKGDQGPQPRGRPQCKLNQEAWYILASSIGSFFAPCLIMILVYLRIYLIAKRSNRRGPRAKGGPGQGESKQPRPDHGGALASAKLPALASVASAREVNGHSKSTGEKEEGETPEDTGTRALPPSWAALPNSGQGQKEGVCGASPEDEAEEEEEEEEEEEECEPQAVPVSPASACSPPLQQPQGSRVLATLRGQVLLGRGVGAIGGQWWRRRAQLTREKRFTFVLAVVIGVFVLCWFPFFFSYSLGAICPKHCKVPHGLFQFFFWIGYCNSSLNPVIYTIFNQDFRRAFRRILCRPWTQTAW
Sequence of UniProt P0AC13 (whole entry, looked up): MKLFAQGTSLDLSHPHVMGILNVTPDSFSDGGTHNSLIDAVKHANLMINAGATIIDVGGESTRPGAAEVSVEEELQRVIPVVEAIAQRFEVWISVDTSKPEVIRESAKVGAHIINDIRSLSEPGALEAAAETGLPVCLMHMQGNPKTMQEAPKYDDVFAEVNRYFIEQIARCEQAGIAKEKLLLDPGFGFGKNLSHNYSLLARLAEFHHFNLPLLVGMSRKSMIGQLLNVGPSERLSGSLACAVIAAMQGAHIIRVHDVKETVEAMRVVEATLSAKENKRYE
Sequence of UniProt Q60893 (whole entry, looked up): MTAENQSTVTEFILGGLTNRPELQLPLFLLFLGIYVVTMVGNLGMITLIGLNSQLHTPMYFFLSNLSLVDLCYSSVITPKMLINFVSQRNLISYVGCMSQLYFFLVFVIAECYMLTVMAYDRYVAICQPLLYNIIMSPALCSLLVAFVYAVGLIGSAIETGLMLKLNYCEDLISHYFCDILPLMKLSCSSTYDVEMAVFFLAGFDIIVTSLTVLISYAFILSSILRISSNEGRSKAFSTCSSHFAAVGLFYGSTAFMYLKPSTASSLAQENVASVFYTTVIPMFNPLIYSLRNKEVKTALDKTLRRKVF

| Structure (SMILES) | target | test | system | conditions | how to read | measurement | value |
| --- | --- | --- | --- | --- | --- | --- | --- |
| Oc1ccccc1-c1n[nH]cc1-c1ccnc2ccccc12 | pH-response regulator protein palF/RIM8 (RIM8, Candida albicans, UniProt Q9UW13) | kinase binding, MIB/MS competition | Candida albicans lysate | 1 µM | baseline: DMSO, negative = stronger binding | log2 fold change | 0.08 |
| CCCCC[C@H](O)/C=C/[C@H]1[C@H](O)CC(=O)[C@@H]1C/C=C\CCCC(=O)O | Prostaglandin E2 receptor EP1 subtype (PTGER1, Homo sapiens, UniProt P34995, M117A) | IP1 accumulation, agonist | AD293 | 1 h, EP1 M117A mutant |  | Emax | 78.9 ± 7.62% |
| CCn1ccnc1CC1COc2ccccc2O1 (stereo not drawn) | Alpha-2B adrenergic receptor (ADRA2B, Homo sapiens, UniProt P18089) | TGFα shedding |  |  | baseline: α2A over α2B | IC50 ratio | 1.77 |
| Cc1cc2ccccc2c2ccc3ccccc3c12 | Aryl hydrocarbon receptor | reporter gene, agonist, luciferase reporter | ZF-4 | 4.572 µM | baseline: vehicle control | fold change | 1.75 |
| CC[C@@H]1[C@H](F)C(=O)N[C@@H]1COc1nccc2cc(C(N)=O)c(OC)cc12 | RPS6KA2 | ATP-site probe binding, ActivX profiling, refers to: RSK3 | THP-1 cell lysate | 0.01 mM, Lys2 site |  | inhibition | -10.4% |
| CCCCCCCCCCCCC/C=C/[C@@H](O)[C@H](CO)NC(=O)CCCCCCCCCCCCCCCCCCCCC | SET | lipid binding, GFP pull-down LC-MS/MS | A549 overexpressing GFP-tagged protein | ER-targeted construct | baseline: eluate plus flow-through | lipid fraction bound | 4.1% |
| CN1CCN(c2cc(-c3ccncc3)c(-c3ccc4ccccc4c3)nn2)CC1 | Vasoactive intestinal polypeptide receptor 2 (VIPR2, Homo sapiens, UniProt P41587) | agonist, FLIPR |  | 12.5 µM |  | activation | 0.6% |
| COC(=O)[C@H](Cc1c[nH]c2c(C)cccc12)NC(=O)[C@@H](OC)[C@@H]1Cc2cc3cc(O[C@H]4C[C@@H](O[C@H]5C[C@@H](O)[C@H](O)[C@@H](C)O5)[C@H](O)[C@@H](C)O4)c(C)c(O)c3c(O)c2C(=O)[C@H]1O[C@H]1C[C@@H](O[C@H]2C[C@@H](O[C@H]3C[C@](C)(O)[C@H](O)[C@@H](C)O3)[C@@H](O)[C@@H](C)O2)[C@H](O)[C@@H](C)O1 | T1, dsDNA, duplex | intrinsic fluorescence titration |  | apparent, tight-binding limit |  | Kd | 2.6 µM |
| [H]/N=C(/N)NCC(=O)O | Sodium- and chloride-dependent taurine transporter (SLC6A6, Homo sapiens, UniProt P31641, L306A) | binding, microscale thermophoresis |  | 30.5 nM, room temperature, with: 50 nM labelled protein | higher = more binding | normalised MST signal | 0.0521 |
| CN1C(=O)/C(=C2\Nc3ccccc3\C2=N/O)c2ccc(Br)cc21 | Aryl hydrocarbon receptor | reporter gene, agonist, luciferase reporter | ZF-4 | 100 µM | baseline: vehicle control | fold change | 25.3 |
| CN(CCCC(F)(F)F)c1nccc(-c2cnn3ncccc23)n1 | ABL1 H396P | KINOMEscan |  | 1 µM | baseline: control | remaining binding | 76% |
| CCN1CCC[C@H]1CNC(=O)c1c(O)c(Cl)cc(Cl)c1OC | Proto-oncogene Mas (Homo sapiens, UniProt P04201) | β-arrestin recruitment, TANGO luminescence, refers to: MAS1 |  | concentration not given | baseline: basal luminescence | log2 fold change | -0.106 |
| Nc1ccc(C(=O)O)cc1 | BEST1, with wild-type BEST1 (Homo sapiens, UniProt O76090, Q293K) | ion current, whole-cell patch clamp | HEK293 co-expressing mutant and wild-type | concentration not given, voltage -60 mV |  | current density | -2.45 pA/pF and -24.1 pA/pF and -8.93 pA/pF and -6.92 pA/pF and -9.55 pA/pF and -7.26 pA/pF |
| CC[C@H](C)[C@H](NC(=O)[C@H](CCCNC(=N)N)NC(=O)[C@H](Cc1c[nH]cn1)NC(=O)[C@H](CCCNC(=N)N)NC(=O)[C@H](CC(=O)O)NC(=O)[C@@H](N)CC(=O)O)C(=O)N[C@@H](CCC(=O)O)C(=O)N[C@@H](CCC(=O)O)C(=O)N[C@@H](CCCCN)C(=O)N[C@@H](CCCNC(=N)N)C(=O)N[C@@H](CCCCN)C(=O)N[C@@H](CCCNC(=N)N)C(=O)N[C@H](C(=O)N[C@@H](Cc1ccc(O)cc1)C(=O)N[C@@H](CCC(=O)O)C(=O)N[C@H](C(=O)N[C@@H](Cc1ccccc1)C(=O)N[C@@H](CCCCN)C(=O)N[C@@H](CO)C(=O)N[C@H](C(=O)N[C@@H](CCSC)C(=O)N[C@@H](CCCCN)C(=O)N[C@@H](CCCCN)C(=O)N[C@@H](CO)C(=O)N1CCC[C@H]1C(=O)N[C@@H](Cc1ccccc1)C(=O)N[C@@H](CC(N)=O)C(=O)NCC(=O)N1CCC[C@H]1C(=O)O)[C@@H](C)CC)[C@@H](C)O)[C@@H](C)O | NF-kappa-B inhibitor alpha | binding, ITC |  | pH 7.5, 293 K, 50 mM NaCl |  | ΔG | -8.6 ± 0.3 kcal/mol |
| OC(C#Cc1ccc(F)c(F)c1)c1cccc(Cl)c1 (stereo not drawn) | HTH-type quorum-sensing regulator RhlR (rhlR, Pseudomonas aeruginosa, UniProt P54292) | reporter gene, inhibitor, quorum sensing reporter strain |  | 10 µM, 1.5 h | baseline: DMSO | remaining activity | 59% |
| CN(C)c1nccc(-c2cnc3ncccn23)n1 | ABL1 H396P | KINOMEscan |  | 1 µM |  | remaining binding | 48% and 73% |
| Nc1nc2c(ncn2[C@@H]2O[C@H](COP(=O)(O)O)[C@@H](O)[C@H]2O)c(=O)[nH]1 | GUK1 (Homo sapiens, UniProt Q16774) | enzyme activity, NADH-coupled |  | 2000 µM, with: NaCl 10 mM |  | reaction velocity | 0.0995 µM/s and 0.099 µM/s and 0.104 µM/s |
| O=c1nc(SCc2cc(F)cc(C(F)(F)F)c2)nc(SCc2csc3ccc(Cl)cc23)[nH]1 | DNA topoisomerase 2-beta (TOP2B, Homo sapiens, UniProt Q02880) | decatenation |  | 31.25 µM |  | mean decatenated DNA | 0.7% |
| COc1ccc(C(C)=O)cc1 | Or8a1 (Mus musculus, UniProt Q60893) | odorant-evoked current, agonist | isolated olfactory neurons |  | baseline: acetophenone saturated response | Emax | 88 ± 10% |
| Nc1ncnc2c1ncn2[C@@H]1O[C@H](COP(=O)(O)CP(=O)(O)OP(=O)(O)O)[C@@H](O)[C@H]1O | P2X purinoceptor 1 (P2RX1, Homo sapiens, UniProt P51575, D97A) | saturation binding |  | 1 nM |  | specific binding | 212 corrected cpm and 156 corrected cpm |
| CC1CCCN(C(=O)c2cc3ncccn3n2)C1 (stereo not drawn) | Huntingtin (HTT, Homo sapiens, UniProt P42858) | binding, affinity selection mass spectrometry |  |  | baseline: other proteins in batch | fold enrichment | 1.04 |

| Structure (SMILES) | target | test | system | conditions | how to read | measurement | value |
| --- | --- | --- | --- | --- | --- | --- | --- |
| CCCCCCCCCCCCC/C=C/[C@@H](O)[C@H](CO)NC(=O)CCCCCCCCCCCCCCCCCCCCCCCCC | SET | lipid binding, GFP pull-down LC-MS/MS | A549 overexpressing GFP-tagged protein | ER-targeted construct | baseline: eluate plus flow-through | lipid fraction bound | 5% |
| CC[C@H](C)[C@H](NC(=O)[C@H](CCCNC(=N)N)NC(=O)[C@H](Cc1c[nH]cn1)NC(=O)[C@H](CCCNC(=N)N)NC(=O)[C@H](CC(=O)O)NC(=O)[C@H](CC(=O)O)NC(=O)[C@@H](NC(=O)[C@H](CC(=O)O)NC(=O)[C@@H]1CCCN1C(=O)[C@@H](N)CC(C)C)[C@@H](C)O)C(=O)N[C@@H](CCC(=O)O)C(=O)N[C@@H](CCC(=O)O)C(=O)N[C@@H](CCCCN)C(=O)N[C@@H](CCCNC(=N)N)C(=O)N[C@@H](CCCCN)C(=O)N[C@@H](CCCNC(=N)N)C(=O)N[C@H](C(=O)N[C@@H](Cc1ccc(O)cc1)C(=O)N[C@@H](CCC(=O)O)C(=O)N[C@H](C(=O)N[C@@H](Cc1ccccc1)C(=O)N[C@@H](CCCCN)C(=O)N[C@@H](CO)C(=O)N[C@H](C(=O)N[C@@H](CCSC)C(=O)N[C@@H](CCCCN)C(=O)N[C@@H](CCCCN)C(=O)N[C@@H](CO)C(=O)N1CCC[C@H]1C(=O)N[C@@H](C)C(=O)N[C@@H](CC(N)=O)C(=O)NCC(=O)N1CCC[C@H]1C(=O)O)[C@@H](C)CC)[C@@H](C)O)[C@@H](C)O | NF-kappa-B inhibitor alpha | binding, ITC |  | pH 7.5, 293 K, 50 mM NaCl |  | ΔG | -7.5 ± 0.2 kcal/mol |
| COc1cc(Nc2ncc3c(n2)-c2ccc(Cl)cc2C(c2c(F)cccc2OC)=NC3)ccc1C(=O)O | STK4 | kinase activity |  | 1 µM |  | remaining activity | 96% |
| Cc1nc(CSc2nc(SCc3ccc(C(C)C)cc3)nc(=O)[nH]2)cs1 | DNA topoisomerase 2-alpha (TOP2A, Homo sapiens, UniProt P11388) | DNA cleavage |  | 15.6 µM, replicate 2 |  | linear DNA | 0% |
| OC[C@H]1OC(O)[C@H](O)[C@@H](O)[C@@H]1O (stereo partly drawn) | Hexokinase-3 (HK3, Homo sapiens, UniProt P52790, R807A) | substrate inhibition |  | mutant R807A, partial substrate inhibition model, with: ATP 20 mM |  | V∞/Vmax ratio (b) | 0.6 ± 0.01 |
| O=C(Nc1cccc2[nH]ccc12)c1ccc(Cl)cc1 | Alpha-synuclein (SNCA, Homo sapiens, UniProt P37840) | ThT kinetics |  | concentration not given, with: SNCA 2 µM |  | fibril formation | inhibited |
| O=C(COP(=O)(O)O)[C@@H](O)[C@H](O)[C@H](O)COP(=O)(O)O | Phosphoglycerate mutase 1 (Homo sapiens, UniProt P18669) | thermal proteome profiling, refers to: PGAM1 | HepG2 cell lysate | concentration not given, 57 over 37 °C | baseline: compound over control | thermal stability ratio | 1.94 and 1.78 and 2.11 |
| CC1(C)S[C@@H]2[C@H](NC(=O)[C@H](N)c3ccccc3)C(=O)N2[C@H]1C(=O)O | T2, DNA aptamer C13T | competition, fluorescence displacement |  | apparent, with: ThT 10 µM |  | Kd | 196 µM |
| CC1=C(C(=O)OC(C)C)C(c2ccccc2Br)C2=C(CC(C)(C)CC2=O)N1 (stereo not drawn) | ADGRG1 (Homo sapiens, UniProt Q9Y653) | agonist, GTPγS binding reconstitution |  | with: G13 | baseline: 3-α-DOG | potency relative to reference | ~40% |
| Cn1c2c(Cl)c(Cl)ccc2c2cc(N)[nH]c(=O)c21 | RPS6KA2 | thermal shift |  | 10 µM, 2 µM protein | higher = stronger binding | ΔTm | 1 °C |
| C#Cc1cccc(Oc2ccc(-c3nn([C@@H]4CCCN(C(=O)C=C)C4)c4ncnc(N)c34)cc2)c1 | Aryl hydrocarbon receptor (AHR, Homo sapiens, UniProt P35869) | ABPP-SILAC |  | 1 µM, 1 h | baseline: DMSO | SILAC ratio | 20 |
| O=C(c1ccc(C(=O)N2CCC(N3CCCC3)CC2)c(Nc2ccccc2)c1)N1CCC(N2CCCC2)CC1 | Lethal(3)malignant brain tumor-like protein 3, MBT domains (Homo sapiens, UniProt Q96JM7) | FRAP | human cells | 0.01 µM |  | diffusion coefficient | 0.146 µm2/s |
| COc1cc(-c2cc(C(C)=O)n3ccccc23)cc(OC)c1Cn1ccnc1 | SWI/SNF-related matrix-associated actin-dependent regulator of chromatin subfamily A member 2, isoform B (SMARCA2, Homo sapiens, UniProt P51531) |  |  |  |  | ΔTm | 0.3 °C |
| O=C(O)c1ccc(Nc2ncc3c(n2)-c2ccc(Cl)cc2C(c2c(F)cccc2F)=NC3)cc1 | CK1γ1(h) | kinase activity |  | 1 µM |  | remaining activity | 92% |
| Cc1cc(NS(=O)(=O)c2ccc(N)cc2)no1 | Dihydropteroate synthase (folP, Bacteria, UniProt P0AC13) | CETSA HiBiT | Escherichia coli, cell lysate | concentration not given | baseline: DMSO | melting temperature shift | -0.38 °C |
| CCCCCCCCCCCCC/C=C/[C@@H](O)[C@H](CO)NC(=O)CCCCCCCCCCCCCCCCCCCCCCC | SET | lipid binding, GFP pull-down LC-MS/MS | A549 overexpressing GFP-tagged protein | ER-targeted construct | baseline: eluate plus flow-through | lipid fraction bound | 2.5% |
| C[C@H]1CCN(c2nccc(-c3cnn4ncccc34)n2)C1 | Tyrosine-protein kinase ABL1 (ABL1, Homo sapiens, UniProt P00519, F317I) |  |  | 1 µM | baseline: control | remaining binding | 59% and 85% |
| c1ccc2c(c1)-c1cccc3c1c-2cc1ccccc13 | Aryl hydrocarbon receptor | reporter gene, agonist, luciferase reporter | ZF-4 | 10000 µM | baseline: vehicle control | fold change | 8.29 |
| NCCCC[C@H](N)C(=O)O | Lysine--tRNA ligase (KARS1, Homo sapiens, UniProt Q15046) | substrate |  |  |  | Km | 22.9 ± 3.72 µM |
| O=C1C[C@@H](c2ccccc2)Oc2cc(O)cc(O)c21 | Aryl hydrocarbon receptor | reporter gene, agonist, luciferase reporter | ZF-4 | 10000 µM | baseline: vehicle control | fold change | 0.845 |
| O=C(COc1ccc(C2CCC(=O)NC2=O)cc1)NCCCCCCN1CCc2c(c3ccccc3n2Cc2ccc(C(=O)NO)cc2)C1 (stereo not drawn) | Protein deacetylase HDAC6 (HDAC6, Homo sapiens, UniProt Q9UBN7) | degrader, western blot | MM1.S | 1 µM, 24 h |  | degradation | 89% |
